Measured values gathered from unrelated publications.
Numbered parts are unrelated; each lists some results of a single study. Changes are numbered by the printed parent chain.

Series 1
Target: CREBL2, bZIP domain (human)
Technique: DHFR protein complementation
Medium: yeast
Notes: single substitutions, most at no-binding floor
Baseline: wild-type JUN-FOS pair
Reading: higher = stronger binding
Quantity: binding fitness
Starting sequence: JUN, bZIP domain (human); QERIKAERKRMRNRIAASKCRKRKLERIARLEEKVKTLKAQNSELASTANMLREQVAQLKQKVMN; partner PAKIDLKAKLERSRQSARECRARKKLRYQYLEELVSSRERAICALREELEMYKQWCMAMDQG
V56Q: -1.39 natural log
A49K: -1.47 natural log
I28W: -1.53 natural log
A57K: -1.46 natural log
E44C: -1.26 natural log
A29G: -1.46 natural log
L52W: -1.46 natural log
K36L: -1.32 natural log
Q55E: -1.5 natural log
S47E: -1.56 natural log
R30P: -1.33 natural log
L52P: -1.47 natural log
T37I: -1.5 natural log
E32I: -1.46 natural log
V56L: -1.42 natural log

Series 2
Target: RING finger protein unkempt homolog, zinc fingers 1-6, GST-SBP tag (UNK, Homo sapiens, UniProt Q9C0B0, residues 30-357)
Technique: RNA Bind-n-Seq
Molecule type: RNA
Medium: in vitro
Concentration: not given
Notes: RNA with constant flanks, human and mouse sites, ends assumed
Baseline: input RNA pool
Reading: higher = stronger binding
Quantity: bound/input enrichment
Construct (chain): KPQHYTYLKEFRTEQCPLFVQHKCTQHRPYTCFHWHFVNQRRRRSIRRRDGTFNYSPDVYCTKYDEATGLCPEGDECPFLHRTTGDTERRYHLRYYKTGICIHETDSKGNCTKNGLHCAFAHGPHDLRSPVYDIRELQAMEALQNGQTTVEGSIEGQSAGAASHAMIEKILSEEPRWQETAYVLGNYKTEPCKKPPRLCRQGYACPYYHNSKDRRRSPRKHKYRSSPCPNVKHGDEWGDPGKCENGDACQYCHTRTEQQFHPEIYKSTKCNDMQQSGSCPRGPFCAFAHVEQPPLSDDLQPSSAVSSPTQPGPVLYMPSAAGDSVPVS
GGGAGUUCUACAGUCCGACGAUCGAAAGAGAAGCUAAAACAACUGAUUGAGAAGAGGAUUGGCAAAGAGAAUUUCAUAGAGAAACUAGGAUUUAUUAGCAAACAUGAGUUGUAUUCCAGAGCAUCUCAGAAACCCCAGCCAAACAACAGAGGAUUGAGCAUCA: 29.3 ratio
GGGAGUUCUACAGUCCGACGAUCAGUAAGAAUCUACCAAUUCUCAGGCACCAAGGGCAGCAGUUGGCAAACAAGUUGCAAUGUCCUUUUGUAGAUGUACCUGCUGGUACAUAUCCUCGUAAAUUUAAUGAAACCCAAAUAAAGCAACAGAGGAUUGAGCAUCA: 0.264 ratio
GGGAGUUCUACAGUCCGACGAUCUGUCCCUCUGCCCCAUCCCUCACAUGGGAUGGUCCCUAGGCCAGGCCUCUCUUCUCUGCCUAGCUACCCCUGUGCUACCUCCCACAUGCUGGGUUCUGGAAUGCAGAGCCUAGGCUCUCUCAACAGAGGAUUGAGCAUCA: 0.165 ratio
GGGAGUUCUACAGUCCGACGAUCGAACCUUUAAUAUGUCCCCUUUGUAGAUCUAAGUGGAGAUCUCAUGAUUUCUACAGCCACGAGUUGUCAAGUCCUGUGGAUUCCCCUUCUUCCCUCAGAGCUGCACAGCAGCAAACCGUACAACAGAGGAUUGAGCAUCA: 0.587 ratio
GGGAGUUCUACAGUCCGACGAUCGUGGCUGAUAUCUCUGUUGCUAAAAUAGAUCCUUUAGCACCUUUGGAUAAAGUCUGCCUUCUAGGUUGUGGCAUUUCAACCGGUUAUGGUGCUGCUGUGAACACUGCCAAGUUGGAGCCUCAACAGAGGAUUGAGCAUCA: 0.302 ratio
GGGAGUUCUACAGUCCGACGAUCGGAGCAGAUCCCGAGGCAGGCUUUGCUCAGCCUCCGACGAGGGCUGGCCCUUUGGAAGGCGCCUUCAACAGCCGGACCAGACAGGCCACCAUGACCGAGAAUUCCACGUCCGCCCCUGCGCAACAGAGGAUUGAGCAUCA: 0.0608 ratio
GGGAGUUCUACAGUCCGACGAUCAGGGCCUCCAACAGGCAAAUUCAGGGAGGAUAGGUUUCAGGGAAUAUAAAUUUAUUUAAUAUUAGUGGUCUUUAAGUAUAAACUUGAUGUAAUUGGUUUGGGAGGGGGCAGUGAUGAUGACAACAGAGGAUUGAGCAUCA: 8.9 ratio
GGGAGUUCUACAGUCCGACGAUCUUUGACUCUGAUAUCAACAAUCGGCUGGUUUACCAUGACUUCUUCAGAGACCCUCUCAACUGGUCAAAAACUGAGGAGGCCUUUCCUGGGGGGCCGCUGGGAGCCUUGAGAGCCAUGUGCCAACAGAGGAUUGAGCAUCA: 0.0989 ratio
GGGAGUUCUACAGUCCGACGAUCGAAAAGGAUCAUAAUGAUGCAGAAGAAGAACCUGAGGCUGGUGAUUCUGUAGGAAAUGUUCAUGAGGGGUUAACUCCAGUGGUCAUUCAGAACAGCAACAAAAAAAUAUUGCAGUGUCCUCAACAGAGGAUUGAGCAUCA: 0.145 ratio
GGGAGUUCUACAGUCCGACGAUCGGCAGGUAUUCAAUACACAAUUCAGGCAUUAGUUUCUCAGUUAAAAAACAAGGUGAGACAGUAUCUGAUGUCAGAACACUGCCCAAUGCCACAACCGUGGACAACAUUCGCUCCAUCUUUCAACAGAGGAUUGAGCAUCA: 0.0664 ratio
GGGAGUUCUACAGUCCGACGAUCUAAAGGGAAAAGGCUAAAGAUCCACCCGCGGUUGCAUUUUCUUCUCUGUUAUCACUCUGCUACCUAGACUGUGAGAGGCUUUGCCUUCAGUCAGAUUACAGAGAGCAGGGUCUGACAUUGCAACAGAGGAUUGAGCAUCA: 0.0788 ratio

Series 3
Target: CCND3, cyclin fold, Cln2 fusion (human)
Technique: yeast growth competition, sequencing
Medium: yeast
Notes: weak parent motif
Baseline: not given
Reading: higher = stronger binding
Quantity: normalised enrichment score
Starting sequence: RBL2 docking peptide (human); STTRRRLFVENDS
STTRRRLFVEKDS [N11K]: 0.124
STTRLRLFVENDS [R5L]: 0.19
SRTRRRLFVENDS [T2R]: 0.0404
STKRRRLFVENDS [T3K]: 0.16
STTRRRLMVENDS [F8M]: 0.0671
STTRRRLHVENDS [F8H]: 0.067
LTTRRRLFVENDS [S1L]: 0.209
STTRRRLFVQNDS [E10Q]: 0.0992
SYTRRRLFVENDS [T2Y]: 0.0912
STTRRRLFFENDS [V9F]: 0.209
STTRRRLFVEYDS [N11Y]: 0.157
STTRRRMFVENDS [L7M]: 0.133
STHRRRLFVENDS [T3H]: 0.0652
STVRRRLFVENDS [T3V]: 0.132
STTRRRLNVENDS [F8N]: 0.0766
DTTRRRLFVENDS [S1D]: 0.159
STTRRRLFVENWS [D12W]: 0.0848
STTRRHLFVENDS [R6H]: 0.0774
STTRRRLFVENDT [S13T]: 0.134
STTRRRLFVANDS [E10A]: 0.108
STTRQRLFVENDS [R5Q]: 0.208
STTRRRLFVENKS [D12K]: 0.155
WTTRRRLFVENDS [S1W]: 0.0255
STTRRVLFVENDS [R6V]: 0.185
STTRRRRFVENDS [L7R]: 0.128

Series 4
Target: CEP164, C-terminal peptide (human)
Technique: DHFR complementation, deep sequencing
Medium: yeast
Notes: single substitutions, model-inferred values
Baseline: wild type
Reading: higher = weaker binding
Quantity: binding free energy change
Starting sequence: PDZK1, PDZ domain 2 (human); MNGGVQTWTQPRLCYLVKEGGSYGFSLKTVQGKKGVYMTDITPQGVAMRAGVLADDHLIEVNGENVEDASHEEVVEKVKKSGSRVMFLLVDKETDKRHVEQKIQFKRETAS; partner HNRVKVYRF
P11F: 0.314 kcal/mol
V75H: 2.24 kcal/mol
A47W: 0.996 kcal/mol
G45N: 1.42 kcal/mol
Q31F: 0.111 kcal/mol
G82R: 0.661 kcal/mol
F105H: -0.164 kcal/mol
R107C: -0.109 kcal/mol
Y23G: 1.48 kcal/mol

Further values, each from its own experiment
PhoQ, residues 284 288 289 292 302 303 NLSRDF  fold induction (PhoP, residues 12 14 15 18 19 GQALL (Escherichia coli, UniProt P23836); Sort-seq, measured: YFP reporter; E. coli; PhoQ-PhoP variant library, with: 10 µM Mg2+; baseline: high Mg2+ state, higher = stronger signaling): 13.5

Some of these lines once more (series 4):
Q31F: 0.111 kcal/mol
P11F: 0.314 kcal/mol
R107C: -0.109 kcal/mol
V75H: 2.24 kcal/mol
G82R: 0.661 kcal/mol
G45N: 1.42 kcal/mol
Y23G: 1.48 kcal/mol
